Results of several laboratories.
Parts stem from different laboratories: compare values within a part only.

Series 1
Target: Sal-like protein 4, full length isoform A (SALL4, Homo sapiens, UniProt Q9UJQ4, residues 1-1053)
UniProt Q9UJQ4, sequence (whole entry, looked up): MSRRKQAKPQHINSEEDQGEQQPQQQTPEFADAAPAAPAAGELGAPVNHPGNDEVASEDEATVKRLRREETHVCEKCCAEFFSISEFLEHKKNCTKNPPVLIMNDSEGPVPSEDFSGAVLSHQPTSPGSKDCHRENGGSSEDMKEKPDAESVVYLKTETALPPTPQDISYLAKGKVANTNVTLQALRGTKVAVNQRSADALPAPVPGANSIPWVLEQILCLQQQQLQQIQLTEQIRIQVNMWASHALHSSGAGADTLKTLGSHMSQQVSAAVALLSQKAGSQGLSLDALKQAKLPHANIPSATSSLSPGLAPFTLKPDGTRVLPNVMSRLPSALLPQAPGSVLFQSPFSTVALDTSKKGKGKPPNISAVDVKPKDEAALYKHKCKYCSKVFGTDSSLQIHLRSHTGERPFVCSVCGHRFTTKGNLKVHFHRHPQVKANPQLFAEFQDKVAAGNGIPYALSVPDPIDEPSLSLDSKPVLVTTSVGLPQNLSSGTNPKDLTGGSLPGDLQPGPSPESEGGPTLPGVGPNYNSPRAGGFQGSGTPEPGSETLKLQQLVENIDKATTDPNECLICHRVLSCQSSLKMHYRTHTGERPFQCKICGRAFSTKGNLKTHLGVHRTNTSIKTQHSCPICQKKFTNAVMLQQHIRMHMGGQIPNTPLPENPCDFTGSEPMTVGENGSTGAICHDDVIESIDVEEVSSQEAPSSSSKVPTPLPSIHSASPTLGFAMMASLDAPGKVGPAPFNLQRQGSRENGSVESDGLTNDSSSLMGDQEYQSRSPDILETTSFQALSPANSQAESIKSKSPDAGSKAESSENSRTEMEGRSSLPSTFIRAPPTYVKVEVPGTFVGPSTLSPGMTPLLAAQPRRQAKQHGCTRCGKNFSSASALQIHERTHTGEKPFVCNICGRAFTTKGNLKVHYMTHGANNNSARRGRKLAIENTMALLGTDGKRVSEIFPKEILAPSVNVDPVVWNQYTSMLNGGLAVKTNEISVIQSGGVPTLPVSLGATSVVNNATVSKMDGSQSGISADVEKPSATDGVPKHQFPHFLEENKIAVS
Technique: universal PBM
Form: double-stranded DNA, one strand shown
Sample: in vitro
Concentration: 600 nM
Setting: 8-mer, flanks averaged, mean of replicates
Direction: higher = stronger binding
Endpoint: E-score
Oligonucleotide = CATTGTCC; value = 0.0747
Oligonucleotide = ACGGGGGA; value = -0.157
Oligonucleotide = GAAGCTTA; value = 0.124
Oligonucleotide = CCATCGGC; value = -0.302
Oligonucleotide = ATGCGAGC; value = -0.139

Series 2
Target: Prothrombin, mature alpha-thrombin (F2, Homo sapiens, UniProt P00734)
Technique: aptamer microarray, sandwich
Form: DNA with 2'F-ANA
Sample: in vitro
Concentration: 200 nM
Setting: whole 15-mer aptamer, many near background
With: Cy3 exosite-II aptamer, 400 nM
Direction: higher = stronger binding
Endpoint: mean fluorescence intensity
Oligonucleotide: GGTTGGTGTGGTTGG
Modification = 2'F-ANA at 2 8 11 12; value = 765 a.u.
Modification = 2'F-ANA at 1 2 3 6 8 12 13 14 15; value = 92.6 a.u.
Modification = 2'F-ANA at 5 7 8 9 10 11 14; value = 71.5 a.u.
Modification = 2'F-ANA at 2 3 5 10 11 12; value = 65.2 a.u.
Modification = 2'F-ANA at 2 3 6 8 10 12 14 15; value = 253 a.u.

Series 3
Target: Histone acetyltransferase KAT6A, winged helix 1, GST fusion (KAT6A, Homo sapiens, UniProt Q92794, residues 1-85)
Technique: protein binding microarray
Form: double-stranded DNA, one strand shown
Sample: in vitro
Concentration: not given
Setting: 8-mer, flanks averaged, mean of 2 arrays, mostly near background
Baseline: not given
Direction: higher = stronger binding
Endpoint: E-score
Construct (chain): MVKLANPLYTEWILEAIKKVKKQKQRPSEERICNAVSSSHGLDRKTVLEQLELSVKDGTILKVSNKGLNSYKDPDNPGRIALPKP
Oligonucleotide = ACGGGAAG; value = 0.27
Oligonucleotide = CATCGTTC; value = -0.116
Oligonucleotide = AAATCGGA; value = -0.145
Oligonucleotide = ATAATCAG; value = -0.086

Further values, each from its own experiment
Substance = PhoQ, residues 284 288 289 292 302 303 TSTLRA; target = PhoP, residues 12 14 15 18 19 GHCSL (Escherichia coli, UniProt P23836); test = Sort-seq, item: YFP reporter; system = E. coli; conditions = PhoQ-PhoP variant library, with: 10 µM Mg2+; scale = baseline: high Mg2+ state, higher = stronger signaling; endpoint = fold induction; value = 38.7

For quick reference, copied from above (series 3):
Oligonucleotide = CATCGTTC; value = -0.116
Oligonucleotide = ATAATCAG; value = -0.086
